Measured values gathered from unrelated publications.
“And” joins repeats or separate records; there may be more than shown. ± marks the error that the study gave.

SMILES | assay | system | conditions | Cmax
CCOc1cc(CC(=O)N[C@@H](CC(C)C)c2ccccc2N2CCCCC2)ccc1C(=O)O |  | human, plasma | oral, dose not given, single dose alone, geometric mean | 20.6 ng/mL
CN(CC#N)C(=O)C[C@H](Nc1nc2ccccc2[nH]1)c1cccc(C(F)(F)F)c1 |  | human | intravenous infusion, 3 mg/kg, 1 mg/mL formulation | 7970 ± 735 ng/mL
O=C(NCCN1CCCC1)c1cc(-c2ccc(CN3CCOCC3)cc2)nc2ccc(F)cc12 |  | human, whole blood | oral, 1800 mg | 1750 ng/mL and 1190 ng/mL and 951 ng/mL and 1070 ng/mL and 1220 ng/mL
COc1ccc2[nH]c([S@+]([O-])Cc3ncc(C)c(OC)c3C)nc2c1 |  | human, dried blood spots | oral, 10 mg omeprazole, together with: voriconazole | 161 ng/mL
Cc1cc(-c2nccc3c2ccn3CC(=O)Nc2ccc(-c3cnccn3)cn2)ccn1 |  | human, plasma | oral, 5 mg once daily, day 16, geometric mean | 56.9 nM
Cc1ncnc2c1ccn2[C@@H]1C[C@H](Oc2cc(C(F)F)c(F)c3c2CNCC3)[C@@H](O)[C@H]1O |  | human, plasma | 0.5 mg once daily | 4.14 ng/mL
CC1=C(c2cccc(O)c2)[C@H](c2ccc(OCCN3CC(CF)C3)cc2)Oc2ccc(O)cc21 |  | human, plasma | oral, 600 mg once daily, steady state geometric mean | 88 ng/mL
CC(C)=CCC/C(C)=C/CC/C(C)=C/CC[C@@](C)(O)CCC1=C(C)C(=O)C(C)=C(C)C1=O |  | healthy human, plasma | oral, 400 mg, together with: itraconazole 200 mg | 3780 ng/mL
Nc1ccc(-c2nc([C@H]3CCc4cc(-c5cc(Cl)ccc5-n5cnnn5)cc(=O)n43)c(F)[nH]2)c(F)n1 |  | human, plasma | oral, 150 mg once daily, day 1 | 1060 ng/mL
COc1cc(Nc2c(C#N)cnc3cc(OCCCN4CCN(C)CC4)c(OC)cc23)c(Cl)cc1Cl | refers to: total drug | human, moderate hepatic impairment, plasma | single dose, NCI classification | 62.7 ng/mL
NC1(C(=O)N[C@@H](CCO)c2ccc(Cl)cc2)CCN(c2nc[nH]c3nccc2-3)CC1 |  | human patients, plasma | dose not given, cohort 160/480, cycle 0, geometric mean | 1060 ng/mL
Cc1cc(Nc2cc3ncccc3c(N[C@@H]3C[C@H]4CC[C@@H](C3)N4CCC#N)n2)n[nH]1 |  | human, plasma | 20 mg, day 14, geometric mean | 0.141 ng/mL
CN[C@@H](C)C(=O)N[C@H]1CN(S(=O)(=O)c2cccc(S(=O)(=O)N3CC[C@H]4CC[C@@H](C(=O)NC(c5ccccc5)c5ccccc5)N4C(=O)[C@@H](NC(=O)[C@H](C)NC)C3)c2)CC[C@H]2CC[C@@H](C(=O)NC(c3ccccc3)c3ccccc3)N2C1=O | LC-MS/MS, noncompartmental | human, plasma | 45 mg, cycle 1 day 1 | 1980 ± 1030 ng/mL
NC(CO)(CO)CCc1ccc(Sc2cccc(OCc3ccccc3)c2)cc1Cl |  | human male fasted, whole blood | oral, 3 mg, given alone | 0.768 ng/mL
Cn1cncc1[C@@](N)(c1ccc(Cl)cc1)c1ccc2c(c1)c(-c1cccc(Cl)c1)cc(=O)n2C |  | human patients | oral, 300 mg/m2, first dose, cycle 1, initial cohort, median | 1380 ng/mL
CCN(CC)Cc1cc(Nc2ccnc3cc(Cl)ccc23)ccc1O |  | human, both sexes, plasma | oral, dose not given, non-fixed combination | 68.4 ng/mL
CC1(COc2ccc3c(c2)ncn3-c2ccc3cccc(N4CCC(N)CC4)c3n2)COC1 |  | human patients, recurrent/progressive HGG or DIPG, serum | oral, 220 mg/m^2, day 28, median | 3830 nM
C[C@H](CCC(=O)NCC(=O)O)[C@H]1CC[C@H]2[C@@H]3CC[C@@H]4C[C@H](O)CC[C@]4(C)[C@H]3CC[C@]12C |  | human, plasma | concentration not given, endogenous baseline diurnal | 90.9 ± 31.2 nM
CO[C@]1(C(=O)N[C@@H](C)c2ccc(-n3cc(F)cn3)nc2)CC[C@H](c2nc(C)cc(Nc3cc(C)[nH]n3)n2)CC1 |  | human, plasma | oral, 200 mg, geometric mean | 594 ng/mL
COc1cc(Nc2ncc3c(n2)-c2ccc(Cl)cc2C(c2c(F)cccc2OC)=NC3)ccc1C(=O)O |  | human patients, plasma | oral, 40 mg twice daily, day 7, together with: pembrolizumab | 1300 ng/mL

Excerpt of the above:
SMILES | assay | system | conditions | Cmax
CC(C)=CCC/C(C)=C/CC/C(C)=C/CC[C@@](C)(O)CCC1=C(C)C(=O)C(C)=C(C)C1=O |  | healthy human, plasma | oral, 400 mg, together with: itraconazole 200 mg | 3780 ng/mL
Cn1cncc1[C@@](N)(c1ccc(Cl)cc1)c1ccc2c(c1)c(-c1cccc(Cl)c1)cc(=O)n2C |  | human patients | oral, 300 mg/m2, first dose, cycle 1, initial cohort, median | 1380 ng/mL
COc1ccc2[nH]c([S@+]([O-])Cc3ncc(C)c(OC)c3C)nc2c1 |  | human, dried blood spots | oral, 10 mg omeprazole, together with: voriconazole | 161 ng/mL
